Measured values gathered from unrelated publications.

Structure (SMILES)	test system	setting	quantity	result
C[C@@H](Nc1nc2c(cnn2C(C)(C)C)c(=O)n1Cc1cccc(F)c1)c1ccc(Cl)cc1	C57BL/6 mouse, plasma	oral, 5 mg/kg	MRT(0-inf)	7.34 h
Cc1cc(NCC(=O)C(C)(C)C)c2nc(N3CCOC[C@H]3C)cc(=O)n2c1	C57BL/6 mouse, plasma	intraperitoneal, 10 mg/kg, single dose	MRT(0-t)	0.97 h
COc1cnc2cccc(N3CCc4c(cc(Cn5ccnc5)cc4-c4cn(C)nc4C(F)(F)F)C3=O)c2c1	male CD-1 mouse, plasma	intraperitoneal, 100 mg/kg	MRT(0-inf)	4.3 h
COc1ccccc1/C=C/CNCC(O)COc1ccc(Nc2ccccc2)cc1 (racemic)	mouse, plasma	oral, 10 mg/kg	MRT(0-inf)	0.94 h
Cc1cc(NCCOC(C)C)c2nc(N3CCOC[C@H]3C)cc(=O)n2c1	C57BL/6 mouse, plasma	intraperitoneal, 10 mg/kg, single dose	MRT(0-t)	1.06 h
COc1cc(OCCN2CCOCC2)cnc1-c1nc2cc(OC(F)(F)F)ccc2[nH]1	mouse, plasma	oral, 100 mg/kg	MRT	3.01 h
CCOC(=O)c1nc2cc(Cl)c(Cl)cc2nc1N1CCN(C(=O)Nc2ccc(N3CCNCC3)cc2)CC1	male mouse, plasma	intravenous, 3 mg/kg	MRT(0-inf)	5.36 h
CCn1cc(-c2cc(Cn3ccnc3)cc3c2CCN([C@H](c2cc(OC)ccn2)C2CC2)C3=O)c(C(F)(F)F)n1	male CD-1 mouse, plasma	intravenous, 3 mg/kg	MRT(0-inf)	0.6 h
O=C1CCC(N2C(=O)c3ccc(N4CCC(C(=O)N5CCC(CCN6CCC(CNC(=O)c7cccc(-c8noc(C(F)(F)F)n8)c7)(c7nc(-c8ccccc8)cs7)CC6)CC5)CC4)cc3C2=O)C(=O)N1 (centres unmarked)	CD-1 mouse, plasma	intraperitoneal, 30 mg/kg	MRT	5.49 h
FC(F)(F)Oc1ccc2[nH]c(-c3ccc(OCCN4CCOCC4)cn3)nc2c1	mouse, plasma	intraperitoneal, 100 mg/kg	MRT	1.24 h
O=C(O)c1ccc(/C=C2\SC(=S)N(Cc3cccc(C(F)(F)F)c3)C2=O)cc1	C57BL/6 mouse, blood	intravenous, 5 mg/kg	MRT(0-inf)	0.53 h

For quick reference, copied from above:
Structure (SMILES)	test system	setting	quantity	result
FC(F)(F)Oc1ccc2[nH]c(-c3ccc(OCCN4CCOCC4)cn3)nc2c1	mouse, plasma	intraperitoneal, 100 mg/kg	MRT	1.24 h
O=C(O)c1ccc(/C=C2\SC(=S)N(Cc3cccc(C(F)(F)F)c3)C2=O)cc1	C57BL/6 mouse, blood	intravenous, 5 mg/kg	MRT(0-inf)	0.53 h
